Assay results from different studies.
Each line is one published result; not all experiments were run side by side. Values joined by “and” are separate records of one study, mostly repeats; a detail may differ. Numbers after ± are the reported error.

Structure (SMILES)	tested on	assay	system	conditions	measurement	value
Cc1ccc(N2CCC(N(C)C)CC2)cc1C(=O)N[C@H](C)c1cc(-c2cnn(C)c2)nc2ccccc12	Vero E6			15.62 µM	viability	85.6% and 85.3% and 83.9%
C[C@H](O)[C@@H](NC(=O)[C@H]1CCCN1C(=O)[C@@H](CCCCN)NC(=O)[C@@H](CO)NC(=O)[C@@H](Cc1ccc(O)cc1)NC(=O)[C@@H](CC(N)=O)NC(=O)CCOCCOCCOCCNC(=O)CN1CCN(CC(=O)O)CCN(CC(=O)O)CCN(CC(=O)O)CC1)C(=O)N[C@H](CC(=O)O)C(=O)N[C@H](CCCNC(=N)N)C(=O)N[C@H](CCC(N)=O)C(=O)N[C@H](Cc1ccc(O)cc1)C(=O)N[C@H](Cc1c[nH]cn1)C(=O)N[C@H](Cc1ccccc1)C(N)=O [gallium-68 labelled]			BALB/c nude mice U-87 MG tumour, heart	intravenous, 1.85 MBq, 0.5 h, radiolabelled	tissue uptake	0.52 ± 0.33 %ID/g
Cc1ccc(OCCN(C)C)cc1C(=O)N[C@H](C)c1cc(-c2scnc2C)nc2ccccc12	Vero E6			125 µM	viability	1.4% and 1.2%
CCCC[C@H]1C(=O)N(C)[C@@H](CCCC)C(=O)N[C@@H](CCCNC(=O)CN2CCN(CC(=O)O)CCN(CC(=O)O)CCN(CC(=O)O)CC2)C(=O)N[C@H](C(=O)NCC(N)=O)CSCC(=O)N[C@@H](Cc2ccc(O)cc2)C(=O)N(C)[C@@H](C)C(=O)N[C@@H](CC(N)=O)C(=O)N2CCC[C@H]2C(=O)N[C@@H](Cc2c[nH]cn2)C(=O)N[C@@H](CC(C)C)C(=O)N(C)CC(=O)N[C@@H](Cc2c[nH]c3ccccc23)C(=O)N[C@@H](CO)C(=O)N[C@@H](Cc2c[nH]c3ccccc23)C(=O)N1C [gallium-68 labelled]			NOD/SCID mice, CHO-hPD-L1 xenograft, heart	60 min, atezolizumab 10 mg/kg pretreatment	tissue uptake	2.86 ± 0.18 %ID/g
O=C1NC2(CC2)COc2ncc(F)cc2[C@H]2COCCN2c2ccn3ncc1c3n2			Sprague-Dawley rat, female, heart	oral, 20 mg/kg/day, 4 weeks dosing, end of recovery	organ-to-body weight ratio	0.395 ± 0.026%
CC(C)C[C@@H](NC(=O)[C@@H](CCCNC(=N)N)NC(=O)[C@@H](Cc1c[nH]cn1)NC(=O)[C@@H](Cc1c[nH]c2ccccc12)NC(=O)[C@@H](Cc1c[nH]cn1)NC(=O)[C@@H](Cc1ccccc1)NC(=O)[C@H](NC(=O)[C@@H](Cc1ccc(O)cc1)NC(=O)CNC(=O)CNC(=O)CCOCCOCCOCCNC(=O)CN1CCN(CC(=O)O)CCN(CC(=O)O)CC1)[C@H](C)O)C(=O)N[C@H](CC(N)=O)C(=O)N1CCC[C@@H]1C(=O)O [gallium-68 labelled]			C57BL/6 mice, male, liver	intravenous, 1.85 MBq, 60 min, together with: GP12 blocking	tissue uptake	1.08 ± 0.16 %ID/g
CSCC[C@H](NC(=O)CNC(=O)[C@H](CCCCN)NC(=O)[C@H](CC(C)C)NC(=O)[C@@H]1CCCN1C(=O)[C@H](CO)NC(=O)[C@H](Cc1c[nH]cn1)NC(=O)[C@H](Cc1c[nH]c2ccccc12)NC(=O)[C@H](CCCNC(=N)N)NC(=O)[C@H](CC(C)C)NC(=O)[C@H](CCCNC(=N)N)NC(=O)[C@H](Cc1c[nH]c2ccccc12)NC(=O)[C@H](CS)NC(=O)CCCCCNC(=O)CN1CCN(CC(=O)O)CCN(CC(=O)O)CCN(CC(=O)O)CC1)C(=O)O [copper-64 labelled]			male C57BL/6J mice, B16-F10 tumour, intestinal lymph node	intravenous, 1.85 MBq, 2 h	tissue uptake	1.64 %ID/g
CC[C@H](C)[C@H](NC(=O)[C@H](CCCNC(=N)N)NC(=O)[C@H](CCCCN)NC(=O)[C@H](Cc1ccc(O)cc1)NC(=O)[C@H](CC(=O)O)NC(=O)[C@H](C)NC(=O)CNC(=O)CCOCCOCCOCCNC(=O)CN1CCN(CC(=O)O)CCN(CC(=O)O)CCN(CC(=O)O)CC1)C(=O)N[C@H](C(=O)N[C@H](C(=O)N[C@@H](CCCCN)C(=O)N[C@H](C(=O)N[C@@H](CC(N)=O)C(N)=O)C(C)C)C(C)C)[C@@H](C)O [copper-64 labelled]		ex vivo gamma counting	C57BL/6J male mice, B16-F10 tumour, thymus	intravenous, 1.85 MBq, 100 min	tissue uptake	0.609 ± 0.157 %ID/g
CC[C@H](C)[C@H](NC(=O)[C@H](CCCCN)NC(=O)CNC(=O)[C@H](CC(C)C)NC(=O)[C@H](Cc1ccccc1)NC(=O)[C@H](CCCCN)NC(=O)[C@H](CO)NC(=O)[C@H](Cc1ccccc1)NC(=O)[C@H](Cc1c[nH]c2ccccc12)NC(=O)[C@H](CCC(N)=O)NC(=O)[C@@H](NC(=O)[C@H](Cc1ccccc1)NC(=O)CCCCCNC(=O)CN1CCN(CC(=O)O)CCN(CC(=O)O)CCN(CC(=O)O)CC1)C(C)C)C(=O)N[C@@H](CCC(=O)O)C(=O)N1CCC[C@H]1C(=O)N[C@@H](CC(=O)O)C(=O)N[C@H](C(=O)N[C@@H](CO)C(=O)N[C@@H](CCC(N)=O)C(=O)N[C@H](C(=O)N[C@@H](CCC(N)=O)C(=O)N[C@@H](CC(=O)O)C(=O)N1CCC[C@H]1C(=O)N[C@@H](CC(N)=O)C(=O)N[C@@H](CC(=O)O)C(=O)N[C@@H](CCC(N)=O)C(=O)N[C@@H](Cc1ccc(O)cc1)C(=O)N[C@@H](CCC(=O)O)C(=O)N1CCC[C@H]1C(=O)N[C@@H](Cc1ccccc1)C(=O)O)C(C)C)C(C)C [copper-64 labelled]			C57BL/6 mice, heart	together with: LPS 3 mg/kg intratracheal	tissue uptake	1.66 ± 0.2 %ID/g
CN1Cc2cc(Cl)ccc2-n2c(nnc2C2CCN(c3cccc([18F])n3)CC2)C1			C57BL/6 mouse male, spleen	intravenous, 3.7 MBq, 30 min	tissue uptake	5.87 ± 2.76 %ID/g
CC[C@H](C)[C@H](NC(=O)[C@H](CCCNC(=N)N)NC(=O)[C@H](CCCCN)NC(=O)[C@H](Cc1ccc(O)cc1)NC(=O)[C@H](CC(=O)O)NC(=O)[C@H](C)NC(=O)CNC(=O)CCOCCOCCOCCNC(=O)CN1CCN(CC(=O)O)CCN(CC(=O)O)CCN(CC(=O)O)CC1)C(=O)N[C@H](C(=O)N[C@@H](CC(C)C)C(=O)N[C@@H](CCCCN)C(=O)N[C@H](C(=O)N[C@@H](CC(N)=O)C(N)=O)C(C)C)[C@@H](C)O [copper-64 labelled]		ex vivo gamma counting	C57BL/6J male mice, B16-F10 tumour, bone	intravenous, 1.85 MBq, 40 min	tissue uptake	0.958 ± 0.359 %ID/g

For quick reference, copied from above:
Structure (SMILES)	tested on	assay	system	conditions	measurement	value
CC[C@H](C)[C@H](NC(=O)[C@H](CCCNC(=N)N)NC(=O)[C@H](CCCCN)NC(=O)[C@H](Cc1ccc(O)cc1)NC(=O)[C@H](CC(=O)O)NC(=O)[C@H](C)NC(=O)CNC(=O)CCOCCOCCOCCNC(=O)CN1CCN(CC(=O)O)CCN(CC(=O)O)CCN(CC(=O)O)CC1)C(=O)N[C@H](C(=O)N[C@H](C(=O)N[C@@H](CCCCN)C(=O)N[C@H](C(=O)N[C@@H](CC(N)=O)C(N)=O)C(C)C)C(C)C)[C@@H](C)O [copper-64 labelled]		ex vivo gamma counting	C57BL/6J male mice, B16-F10 tumour, thymus	intravenous, 1.85 MBq, 100 min	tissue uptake	0.609 ± 0.157 %ID/g
